# Measured values collected from several papers.
# Parts stem from different laboratories: compare values within a part only. Positions count from the first letter of the parent shown.

# Study 1 — method: RNA Bind-n-Seq; molecule type: RNA; sample: in vitro; concentration: 1 µM; setting: whole 134-nt RNA, ends assumed; together with: 150 mM KCl; reference: input library; direction: higher = stronger binding
# Target: Ras GTPase-activating protein-binding protein 1, C-terminal RGG region (G3BP1, Homo sapiens, UniProt Q13283)
# UniProt Q13283, sequence (whole entry, looked up): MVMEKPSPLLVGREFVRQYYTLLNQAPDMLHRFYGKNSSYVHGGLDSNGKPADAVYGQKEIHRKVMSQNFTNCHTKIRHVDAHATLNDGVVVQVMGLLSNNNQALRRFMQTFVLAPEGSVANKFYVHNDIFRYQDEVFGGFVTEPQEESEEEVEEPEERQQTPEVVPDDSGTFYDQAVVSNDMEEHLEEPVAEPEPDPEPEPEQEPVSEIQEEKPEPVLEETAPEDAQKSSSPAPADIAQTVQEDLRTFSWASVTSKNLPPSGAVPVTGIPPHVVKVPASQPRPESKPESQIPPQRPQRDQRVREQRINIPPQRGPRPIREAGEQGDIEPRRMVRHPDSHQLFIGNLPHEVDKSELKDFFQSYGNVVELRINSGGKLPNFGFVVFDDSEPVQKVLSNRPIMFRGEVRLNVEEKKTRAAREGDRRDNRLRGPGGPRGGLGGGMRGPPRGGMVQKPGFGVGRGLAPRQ
Oligonucleotide,log2 enrichment
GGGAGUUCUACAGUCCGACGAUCUCCUCAAGUCCUGUGCUACACAUCGUAUGUACCGAAUCGGUUUGGAGGAGGAAAGUAUUAUGUUACGCCGUUCGGAUCUGCACUUCCAGCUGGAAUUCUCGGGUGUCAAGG,-1.29
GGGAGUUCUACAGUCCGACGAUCGCAGGAAGUAAAAACAAAUCGAAAUGCUUCGGAUAGUGGCAGGGGUGGGGGUUGCUAAGGAAAGGGUGGGAUGGGAGUGGGUAAAGAGUUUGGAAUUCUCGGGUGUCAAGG,2.22
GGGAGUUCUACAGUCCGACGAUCAGUCCUGUGCUACACAUCGUAUGUACCGAAUCGGGGUGGGGAGGGGAAAAAAAGGGGAAAGUAUUAUGUUACGCCGUUCGGAUCUGCACUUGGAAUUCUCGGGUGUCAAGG,1.55
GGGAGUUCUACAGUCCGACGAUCGCAGGAAGUAAAAACAAAUGGAUAUGCUUCGGAUAGUGGCAGGGGUGGGGGUUGCUAAGGAAAGGGUGGGAUGGGAGUGGGUAAAGAGUUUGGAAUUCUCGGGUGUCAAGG,2.67
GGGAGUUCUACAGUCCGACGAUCCCUCAAGUCCUGUGCUACACAUCGUAUGUACCGAAUCGGUGGAAAAAGGAGGAAAGUAUUAUGUUACGCCGUUCGGAUCUGCACUUCCAGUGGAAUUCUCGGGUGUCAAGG,-0.637
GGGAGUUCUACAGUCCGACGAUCCACAGACAACACGCACCCACACAGACACAGAGGGAAGGGGUUGGGAUGGGGACAGGGUGCAAAGCAGGGCGGGGUAGGACCCCAGCCCCUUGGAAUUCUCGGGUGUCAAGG,-0.174
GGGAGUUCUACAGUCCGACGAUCUGUGCUACACAUCGUAUGUACCGAAUCGGGGUUUUUUUGGGGUUUUUUUGGGUUUUUUUGGGGAAAGUAUUAUGUUACGCCGUUCGGAUCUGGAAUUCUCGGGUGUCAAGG,-0.762
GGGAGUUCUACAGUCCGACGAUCCUCAAGUCCUGUGCUACACAUCGUAUGUACCGAAUCGGGAGGGUGGGAAAGGGAAAGUAUUAUGUUACGCCGUUCGGAUCUGCACUUCCAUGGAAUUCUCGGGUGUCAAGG,1.75
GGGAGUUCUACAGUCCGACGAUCUCCUGUGCUACACAUCGUAUGUACCGAAUCAAAUUUUUUUAAAUUUUUUUAAAUUUAAAAAAGUAUUAUGUUACGCCGUUCGGAUCUGCAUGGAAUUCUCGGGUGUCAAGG,-1.89
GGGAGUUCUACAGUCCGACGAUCUGGCCCUGGUGGCAUGCAGGGAGGAAGAGGUGGCCUCAUGGAUCGUGGUGGUCCCGGUGGAAUGUUCAGAGGUGGCCGUGGUGGAGACAGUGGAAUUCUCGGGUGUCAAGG,2.41
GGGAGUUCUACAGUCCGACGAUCCCUCAAGUCCUGUGCUACACAUCGUAUGUACCGAAUCGGGCCGGGCCGGCCGGAAAGUAUUAUGUUACGCCGUUCGGAUCUGCACUUCCAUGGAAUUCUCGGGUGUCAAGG,-0.832
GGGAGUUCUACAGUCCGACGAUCCUGUGCUACACAUCGUAUGUACCGAAUCGGGGCCCCCCCGGCCCCCCCGGGCCCCCCCGGGAAAGUAUUAUGUUACGCCGUUCGGAUCUGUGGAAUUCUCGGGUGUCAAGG,-1.86
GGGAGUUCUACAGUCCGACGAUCUAACUUUAGAGGAGGAUCUGAUGGAUAUGGCAGUGGACGUGGAUUUGGGGAUGGCUAUAAUGGGUAUAGAGGAGGACCUGGAGGUGGCAAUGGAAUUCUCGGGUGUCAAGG,-0.847
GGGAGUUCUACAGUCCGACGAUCGCAGGAAGUAAAAACAAAUGGAAAUGCUUCGGAUAGUGGUAGGGGUGGGGGUUGCUAAGGAAAGGGUGGGAUGGGAGUGGGUAAAGAGUUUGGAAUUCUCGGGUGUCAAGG,2.01

# Study 2 — method: DHFR PCA, deep sequencing; sample: yeast; together with: (+)-ABA 0.39 µM; reference: wild-type fitted maximum; direction: higher = stronger binding
# Target: ABI1, truncated, D143A, DHFR fusion (Arabidopsis thaliana)
# Setting: methotrexate growth selection, single substitutions
# Starting sequence: PYL1, truncated, DHFR fusion (Arabidopsis thaliana); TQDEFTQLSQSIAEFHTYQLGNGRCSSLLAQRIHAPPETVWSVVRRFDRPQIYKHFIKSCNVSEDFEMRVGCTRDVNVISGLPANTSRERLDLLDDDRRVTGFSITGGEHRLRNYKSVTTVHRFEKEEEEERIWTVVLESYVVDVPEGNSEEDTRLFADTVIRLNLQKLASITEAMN
Substitution,relative binding score [%]
G107F,-4.91
I12G,-0.36
I79L,3.51
F157H,22.8
L138T,-19.8
R111D,-0.549
R88F,31.1
S80T,40.3
Q19I,24.1
I57P,-15.3
V143Q,-10.6
V78Y,93.9
N165Y,1.01
Q167P,8.22
D75T,71
Q10Y,10.4
D48N,4.71
R69D,12.4
S87A,10.1

# Study 3 — method: universal PBM; molecule type: double-stranded DNA, one strand shown; sample: in vitro; concentration: not given; direction: higher = stronger binding
# Target: Sal-like protein 4, full length isoform B (SALL4, Homo sapiens, UniProt Q9UJQ4-2, residues 1-616)
# Setting: 8-mer, flanks averaged, mean of replicates
Oligonucleotide,E-score
AAGAAAAC,0.0604
AAAGATGC,-0.0717
AAAGTCGG,-0.0936
CCCTGAGG,-0.266
CTGGAAAC,0.0288
CAACAAGC,-0.0942
CGTTTGCA,0.067
CTTATGCC,0.0476
ACTCTCAT,0.0839
ACAGCGTC,-0.0626
CTACAGCC,-0.142
GATATCCA,0.215
CGCCACAG,-0.228
ATCAAAAA,0.327
CGATAGGA,-0.00435
GGGGTCAA,-0.00188
AAAATTGA,0.333
GGCTACAC,0.0663
GTGAAGTA,0.102

# Study 4 — target: CCNA2, cyclin fold, Cln2 fusion (human); method: yeast growth competition, sequencing; sample: yeast; setting: strong parent motif; reference: not given; direction: higher = stronger binding
# Starting sequence: CDC25A docking peptide (human); PPHRRRLLFACSP
Substitution,normalised enrichment score
PPHQRRLLFACSP [R4Q],2.02
EPHRRRLLFACSP [P1E],2.7
FPHRRRLLFACSP [P1F],1.57
PPHRRRLLFACRP [S12R],1.83
PPHRRRLLTACSP [F9T],1.93
PPHRRRLLLACSP [F9L],1.38
PPHRRFLLFACSP [R6F],1.47
PCHRRRLLFACSP [P2C],2.61
PPHRRQLLFACSP [R6Q],2.18
PPHNRRLLFACSP [R4N],2.13
PDHRRRLLFACSP [P2D],1.79
PPHRRRLLFACSW [P13W],1.27
PPHRRRLLFACST [P13T],2.74
PPHRRRVLFACSP [L7V],1.18
PPWRRRLLFACSP [H3W],2.85
PPHRRRQLFACSP [L7Q],0.939
PPHRRRELFACSP [L7E],1.56
PPHRRRLLFCCSP [A10C],2.09
PPHRRRLLFACPP [S12P],2.28
PPHRRRLAFACSP [L8A],2.04
PPHRRRSLFACSP [L7S],1.27
PYHRRRLLFACSP [P2Y],2.4
PPARRRLLFACSP [H3A],5.04
PPHRRRLLFGCSP [A10G],3.06
PPHRRRLLFAISP [C11I],2.26

# Study 5 — target: UBE2B UBC core domain (UniProt P63146); method: yeast two-hybrid; sample: yeast; setting: mostly zero background; reference: not given; direction: higher = stronger interaction
# UniProt P63146, sequence (whole entry, looked up): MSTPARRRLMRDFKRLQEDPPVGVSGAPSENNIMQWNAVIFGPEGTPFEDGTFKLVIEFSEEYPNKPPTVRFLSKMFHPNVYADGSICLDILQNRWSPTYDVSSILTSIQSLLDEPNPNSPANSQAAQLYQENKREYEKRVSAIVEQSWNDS
# B1: RNF32 RING domain (UniProt Q9H0A6); chain VQALRRETHECSICLAPLSAAGGQRVGAGRRSREMALLSCSHVFHHACLLALEEFSVGDRPPFHACPLCRSCYQKKILEC
# B2: UBE4B RING domain (UniProt O95155); chain KNARAEIDYSDAPDEFRDPLMDTLMTDPVRLPSGTIMDRSIILRHLLNSPTDPFNRQTLTESMLEPVPELKEQIQAWMREKQNSDH
# B3: TRIM32 RING domain (UniProt Q13049); chain NLDALREVLECPICMESFTEEQLRPKLLHCGHTICRQCLEKLLASSINGVRCPFCSKITRITSLTQ
# B4: RMND5B RING domain (UniProt Q96G75); chain MKCWYHSVFACPILRQQTSDSNPPIKLICGHVISRDALNKLINGGKLKCPYCPMEQNPADGK
# B5: NHLRC1 RING domain (UniProt Q6VVB1); chain MREAEISLLECKVCFEKFGHRQQRRPRNLSCGHVVCLACVAALAHPRTLALECPFCRRACRGCDTSD
# B6: MDM2 RING domain (UniProt Q00987); chain TQDKEESVESSLPLNAIEPCVICQGRPKNGCIVHGKTGHLMACFTCAKKLKKRNKPCPVCRQPIQMIVLTYFP
# B7: SHPRH RING domain (UniProt Q149N8); chain KTSGGVNPEPCPICARQLGKQWAVLTCGHCFCNECISIIIEQYSVGSHRSSIKCAICRQTTSHKEISY
# B8: RNF130 RING domain (UniProt Q86XS8); chain DKETDPDFDHCAVCIESYKQNDVVRILPCKHVFHKSCVDPWLSEHCTCPMCKLNILKALGIV
Sequence,lacZ reporter activity
AAQLLEEKLTCAICLGLYQDPVTLPCGHNFCGACIRDWWDRCGKACPECREPFPDGAELR (TRIM65 RING domain (UniProt Q6PJ69)),0
VPADASPDSKCPICLDRFDNVSYLDRCLHKFCFRCVQEWSKNKAECPLCKQPFDSIFHSV (TOPORS RING domain (UniProt Q9NS56)),0
B1 (RNF32 RING domain),0
B2 (UBE4B RING domain),0
B3 (TRIM32 RING domain),0
B4 (RMND5B RING domain),0
GSEEEEIPFRCFICRQAFQNPVVTKCRHYFCESCALEHFRATPRCYICDQPTGGIFNPA (RNF113B RING domain (UniProt Q8IZP6)),0
EDVLSKDAGECAICLEELQQGDTIARLPCLCIYHKGCIDEWFEVNRSCPEHPSD (ZNRF2 RING domain (UniProt Q8NHG8)),0
KITELNPHLMCALCGGYFIDATTIVECLHSFCKTCIVRYLETNKYCPMCDVQVHKTRPLL (PCGF2 RING domain (UniProt P35227)),0
B5 (NHLRC1 RING domain),0
B6 (MDM2 RING domain),0
B7 (SHPRH RING domain),0
B8 (RNF130 RING domain),0

# A few entries again (study 4):
Substitution,normalised enrichment score
PPHRRRLLFGCSP [A10G],3.06
PDHRRRLLFACSP [P2D],1.79
PPHRRRLLFACPP [S12P],2.28
FPHRRRLLFACSP [P1F],1.57
PCHRRRLLFACSP [P2C],2.61
PPHRRRLLFCCSP [A10C],2.09
